Assay results collected from several papers.
Numbered parts are unrelated; each lists some results of a single study. Changes are numbered by the printed parent chain.

Sample 1
Target: Histone acetyltransferase KAT6A, both winged helices, GST fusion (KAT6A, Homo sapiens, UniProt Q92794, residues 1-181)
Technique: protein binding microarray
Form: double-stranded DNA, one strand shown
Medium: in vitro
Tested at: not given
Setting: 8-mer, flanks averaged, mean of 2 arrays, mostly near background
Relative to: not given
Reading: higher = stronger binding
Residues (chain): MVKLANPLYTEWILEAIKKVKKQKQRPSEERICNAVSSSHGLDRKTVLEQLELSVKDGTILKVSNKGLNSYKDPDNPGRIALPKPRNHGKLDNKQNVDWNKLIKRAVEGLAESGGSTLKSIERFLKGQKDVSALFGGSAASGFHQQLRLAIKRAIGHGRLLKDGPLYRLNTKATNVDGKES
Sequence | E-score
ACTGCATC | -0.179
ACCCGGGG | 0.177
AGGTAGGA | -0.105
AGATCGCT | 0.167
GACGTGGA | -0.0663
CACTATCG | 0.0725
GCTTCCCC | 0.0147
ATGGCTAA | -0.1
GCCAACAC | 0.0924
ACCGGAAC | 0.192
CGTTATTA | 0.127
AAACCTAG | -0.17
ACCACGGT | -0.0335
ACTGGGTG | -0.189
ACGCTGGG | 0.00385

Sample 2
Target: CCNA2, cyclin fold, Cln2 fusion (human)
Technique: yeast growth competition, sequencing
Medium: yeast
Setting: strong parent motif
Relative to: not given
Reading: higher = stronger binding
Parent: BRCA2 docking peptide (human); PSIKRNLLNEFDR
Substitution | normalised enrichment score
N6K | 4.53
R5K F11L | 0.415
E10R | 0.888
P1H | 6.39
E10N | 1.66
R5P | 0.605
I3N | 1.44
I3Y | 5.5
L7I | 1.86
N6Q | 2.48
R13P | 4.44
K4Y | 3.28
I3H | 4.01
N9D | 4.97
F11K | 0.0575
D12G | 4.17
N6P | 1.84

Sample 3
Target: RNA binding protein fox-1 homolog 2, RRM domain, GST-SBP tag (RBFOX2, Homo sapiens, UniProt O43251-10, residues 100-194)
Technique: RNA Bind-n-Seq
Form: RNA
Medium: in vitro
Tested at: 365 nM
Setting: natural RNA segment, single round, ends assumed
Relative to: no-protein control
Reading: higher = stronger binding
Constant ends, left off below: GGGAGUUCUACAGUCCGACGAUC … UGGAAUUCUCGGGUGCCAA
Target sequence (chain): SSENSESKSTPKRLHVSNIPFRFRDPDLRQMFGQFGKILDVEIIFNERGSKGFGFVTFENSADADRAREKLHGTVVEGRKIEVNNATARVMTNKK
Sequence | RBNS enrichment (R)
AGCUGCCCGGGGUGGCACGUCGCGAAAGCUUGUUUCCCCACGGUCUGGCUUCUGCAGGGGAAAUUUCAAGGCCACUGGCGUGGACCAUCUGGGUGUCCUCAGCCCCUGUG | 0.673
CAUGUCUUGCUUCUCCAGUGUGUGGAAGGCACCGGGCAGUUUGCAGAGAUAAGCAAAACACAGUUCCUCUCGUGCAGAAGGUUAGAAUCUAUUUUUUUUUUUGACAGAGU | 0.859
AUCUCAGCCAGAGGCCAGAUGUUCUUAGAACUGACUUGACCUGAGCAGACCCCCUAACCCUUCAGACAGGCAGUGUUUAUUUAAUGCGUAGAGUGCAGAGGGGCUCUUUU | 0.301
CCAUAAAAUCUGGCUCGUCUUUGAUGAACAAUAAAUAUUUGUUGAACAAAUAAAUAACUGCCCUGCAUUAAGUCUGUAGCGGGCUUUCUUUUCUGUGUGACCUCAUUUCU | 0.928
UCAAAAAUACUUCAUUCUGCUGCUGUUCAGUUGGCUUUUUAAACCUGUCUGCAGUAGGACACUGAAAACAGCAAGAACUUCGGGGUGAACACCCGCUGAUCCUUUAACAA | 0.359
UGGGUACAUGGCCCGCAGUGGCUUUUGCCCCAGAAAGGGGAAAGGAACACGCGGGUAGAUGAUUUCUAGCAGGCAGGAAGUCCUGUGCGGUGUCACCAUGAGCACCUCCA | 0.248
GGGGGCCAGGGGUCAUCGGUUUGACCCCUGACCUAUAAGCCAAGAUACCCCAUAAACACACUCAGAAAGCAGAGAAAAAGGACAAGAGUCUGUGUUUGAGAGGGGGUCUG | 0.492
UGGGGCCUCUCAUUUUUUAUAAGCUCUUGAUAUACUUGAACAAUUUAAUAUGUACAGUUAGUUUGCUCUGGAUUAGUAUAUAAGUACAUUUUAUUAGGGGUUGUGACAAC | 0.549
AACGACAGAAGAACAUGGCAUUUUUAUAAAUUAUUUUUUUGAAAUAAAUCUCUGUGUGCCUGGUGGCUUCCCUGUGUGGCAGGGUGUAGGGUGGGAAGAUUUUCCACGUU | 0.828
UUUGUGGGCUGGAGUUACCAGUAGCUCCAGCAGUUACCCUGAAGAGAGAUUGGGCUUCAGCCUUCAGCAGGUGGUUCUCUCCCAUGCCUGGCCUUGGUGUGGAGGGGCUG | 0.277
UCUGAGGGUAAAGCCGGUGGGAGGCUCAGCAGGCCAGGAGGCCCAAGGACAGGACUUGCGACCUUGAAGCCAAAGGAAUCUCACUUGUGGGGCCUCCUUGUCAGCUCUGC | 0.415
GUUUGGACAGAGCACCACUGUCACCAAGGAGCCUGUGUGAGACACACUGCUGAGACUGCCUCUUGUUAAUGUCACCAUCACCUCAUCACUCAGGCAAAGAGGGGAAAAUC | 0.583

Sample 4
Target: Max dimerization protein 1, bHLH-zipper, MAX partner unstated (MXD1, Homo sapiens, UniProt Q05195, residues 56-136)
Technique: protein-binding microarray
Form: double-stranded DNA, one strand shown
Medium: in vitro
Tested at: not given
Setting: k-mer, scored over probes, only values ≥0.25
Reading: higher = stronger binding
Target sequence (chain): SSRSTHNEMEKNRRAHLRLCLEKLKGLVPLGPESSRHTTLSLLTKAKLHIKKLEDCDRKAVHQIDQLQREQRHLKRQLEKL
Sequence | E-score
ATGGGGGC | 0.368
CATGCTGA | 0.428
CCCCGCCG | 0.299
CGACATGC | 0.409
ACGTGGAA | 0.376
ATCGCATG | 0.298
AAATGTGC | 0.336
ACCGCATG | 0.373
AACCTCAT | 0.273
TAGGGGCA | 0.258
ACACGCTG | 0.362
CACCATGG | 0.276
GCGCGTGA | 0.292
ATGGCCCC | 0.252
ACCATGCT | 0.419
ACGCCATG | 0.328
CACGAGTA | 0.401
ACACGCAT | 0.365
GCGCATGA | 0.313
ACGCGTCG | 0.292

Sample 5
Target: Ras GTPase-activating protein-binding protein 1, full length (G3BP1, Homo sapiens, UniProt Q13283)
Chain of UniProt Q13283 (whole entry, looked up): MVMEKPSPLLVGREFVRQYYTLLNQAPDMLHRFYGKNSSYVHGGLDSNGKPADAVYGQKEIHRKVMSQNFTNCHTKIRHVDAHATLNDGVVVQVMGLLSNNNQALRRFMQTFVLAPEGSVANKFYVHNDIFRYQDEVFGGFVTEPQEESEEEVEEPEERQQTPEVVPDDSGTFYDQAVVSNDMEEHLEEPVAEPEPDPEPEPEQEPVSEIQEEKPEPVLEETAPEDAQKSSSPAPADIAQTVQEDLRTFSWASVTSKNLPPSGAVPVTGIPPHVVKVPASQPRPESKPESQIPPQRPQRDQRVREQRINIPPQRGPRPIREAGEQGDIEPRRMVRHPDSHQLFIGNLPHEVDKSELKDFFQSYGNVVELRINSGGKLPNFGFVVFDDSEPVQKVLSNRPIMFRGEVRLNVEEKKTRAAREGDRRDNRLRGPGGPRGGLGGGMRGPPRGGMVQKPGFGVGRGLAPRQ
Technique: RNA Bind-n-Seq
Form: RNA
Medium: in vitro
Tested at: 200 nM
Setting: whole 134-nt RNA, ends assumed
Added: 150 mM KCl
Relative to: input library
Reading: higher = stronger binding
Constant ends, left off below: GGGAGUUCUACAGUCCGACGAUC … UGGAAUUCUCGGGUGUCAAGG
Sequence | log2 enrichment
UAAAUUUAGAGGAGGAUCUGAUGGAUAUGGCAGUGGACGUGGAUUUGGGGAUGGCUAUAAUGGGUAUGGAGGAGGACCUGGAGGUGGCAA | 0.276
AGUCCUGUGCUACACAUCGUAUGUACCGAAUCGGCCCCCGGGCCCCCGGGGCCCCCGGAAAGUAUUAUGUUACGCCGUUCGGAUCUGCAC | -1.07
CAAGUCCUGUGCUACACAUCGUAUGUACCGAAUCGGGGUUUGGGUUUGGUUUGGGGAAAGUAUUAUGUUACGCCGUUCGGAUCUGCACUU | 0.0921
ACCACGCAGGUGGGCAUCUUUGGGAAGUGGGGCAAGGGGGGGAUAGGGAGGGGGGUAACACUUUGGGAACAGGUGGUCCCAGGUCGUUUC | 1.08
CUCAAGUCCUGUGCUACACAUCGUAUGUACCGAAUCGGUUGGGUUGGGGUUGGAAAGUAUUAUGUUACGCCGUUCGGAUCUGCACUUCCA | -0.152
CCUGUGCUACACAUCGUAUGUACCGAAUCAAAUUUUUUUAAAUUUUUUUAAAUUUUUAAAAAAGUAUUAUGUUACGCCGUUCGGAUCUGC | -1.05
UCCUGUGCUACACAUCGUAUGUACCGAAUCAAACCCAAAUUUUUUUAAACCCCCCCAAAAAAGUAUUAUGUUACGCCGUUCGGAUCUGCA | 0.301
UUAAGUGUAUUGGAGCCCCAAGUUCUCAAUUAUUUGAGCCUCCGGGCGACAGAGCAAGAAAAGGUGAGUGGAUAGCGCAGGCAUAUUGGU | 0.311
UGGCGCUGUCCUGGACUUGAUGGGGGAUGAAGCCCAGAACCUGACGAGGGGCCGGCAGCAGCUCAAGUGGUGAGUGAUCGAGUGAGCCGC | -0.416
AAGUCCUGUGCUACACAUCGUAUGUACCGAAUCGGGUUUUGGUUUUGGUUUUGGGGAAAGUAUUAUGUUACGCCGUUCGGAUCUGCACUU | -1.1
AGUCCUGUGCUACACAUCGUAUGUACCGAAUCGGUUUUUGGUUUUUGGUUUUUUUGGAAAGUAUUAUGUUACGCCGUUCGGAUCUGCACU | -1.41
UGGCCCUGGUGGCAUGCGGGGAGGAAGAGGUGGCCUCAUGGAUCGUGGUGGUCCCGGUGGAAUGUUCAGAGGUGGCCGUGGUGGCGACAG | 0.109
CUGUGCUACACAUCGUAUGUACCGAAUCGGGGCCCCCCCGGCCCCCCCGGGCCCCCCCGGGAAAGUAUUAUGUUACGCCGUUCGGAUCUG | -0.851

Sample 6
Target: ABI1, truncated, D143A, DHFR fusion (Arabidopsis thaliana)
Technique: DHFR PCA, deep sequencing
Medium: yeast
Setting: methotrexate growth selection, single substitutions
Added: (+)-ABA 4.8 µM
Relative to: wild-type fitted maximum
Reading: higher = stronger binding
Parent: PYL1, truncated, DHFR fusion (Arabidopsis thaliana); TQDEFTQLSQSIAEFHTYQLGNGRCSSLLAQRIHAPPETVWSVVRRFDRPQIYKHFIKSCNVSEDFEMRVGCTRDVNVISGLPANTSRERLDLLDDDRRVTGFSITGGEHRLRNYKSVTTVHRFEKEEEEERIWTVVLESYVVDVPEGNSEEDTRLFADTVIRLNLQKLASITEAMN
Substitution | relative binding score
R45G | -5.5%
V40M | -10.9%
T120C | 3.72%
F56T | -4.19%
E109T | 58.6%
A35H | -19%
V62Q | -6.55%
H34G | 57.1%
G148S | 29.7%
S80G | 12.3%
A35S | 46.4%
R163Q | 53.9%
W134M | 86.5%
